Experimental data from different studies.
Numbers after ± are the reported error.
HLA class I histocompatibility antigen, A alpha chain allele A*02:01: HLA class I histocompatibility antigen, A alpha chain, allele A*02:01 (Homo sapiens, UniProt P04439)
ampC: Beta-lactamase (ampC, Escherichia coli K-12, UniProt P00811)
Sequence of UniProt P00811 (whole entry, looked up): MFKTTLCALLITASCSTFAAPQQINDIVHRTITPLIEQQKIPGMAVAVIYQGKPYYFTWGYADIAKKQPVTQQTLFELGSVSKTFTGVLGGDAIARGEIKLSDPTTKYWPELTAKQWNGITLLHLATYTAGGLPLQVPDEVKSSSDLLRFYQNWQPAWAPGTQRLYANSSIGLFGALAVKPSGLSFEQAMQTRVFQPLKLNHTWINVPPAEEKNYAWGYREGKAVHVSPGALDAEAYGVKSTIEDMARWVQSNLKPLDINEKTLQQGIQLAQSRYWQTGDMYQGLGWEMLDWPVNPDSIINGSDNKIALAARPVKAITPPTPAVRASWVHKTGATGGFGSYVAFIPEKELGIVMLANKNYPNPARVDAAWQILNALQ
HLA class I histocompatibility antigen, A alpha chain allele A*24:02: HLA class I histocompatibility antigen, A alpha chain, allele A*24:02 (Homo sapiens, UniProt P04439)
Sequence of UniProt P03023 (whole entry, unmodified, looked up): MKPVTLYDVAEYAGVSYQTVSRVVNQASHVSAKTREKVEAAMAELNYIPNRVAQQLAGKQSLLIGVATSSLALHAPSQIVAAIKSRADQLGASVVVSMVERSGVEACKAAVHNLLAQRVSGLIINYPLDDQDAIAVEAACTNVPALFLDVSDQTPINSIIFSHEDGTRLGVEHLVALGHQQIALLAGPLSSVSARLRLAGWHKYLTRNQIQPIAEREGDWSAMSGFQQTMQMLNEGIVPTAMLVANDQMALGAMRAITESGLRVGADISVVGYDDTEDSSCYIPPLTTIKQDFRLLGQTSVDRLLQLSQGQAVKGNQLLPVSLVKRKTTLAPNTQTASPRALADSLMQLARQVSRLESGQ
Sequence of UniProt O00425 (whole entry, looked up): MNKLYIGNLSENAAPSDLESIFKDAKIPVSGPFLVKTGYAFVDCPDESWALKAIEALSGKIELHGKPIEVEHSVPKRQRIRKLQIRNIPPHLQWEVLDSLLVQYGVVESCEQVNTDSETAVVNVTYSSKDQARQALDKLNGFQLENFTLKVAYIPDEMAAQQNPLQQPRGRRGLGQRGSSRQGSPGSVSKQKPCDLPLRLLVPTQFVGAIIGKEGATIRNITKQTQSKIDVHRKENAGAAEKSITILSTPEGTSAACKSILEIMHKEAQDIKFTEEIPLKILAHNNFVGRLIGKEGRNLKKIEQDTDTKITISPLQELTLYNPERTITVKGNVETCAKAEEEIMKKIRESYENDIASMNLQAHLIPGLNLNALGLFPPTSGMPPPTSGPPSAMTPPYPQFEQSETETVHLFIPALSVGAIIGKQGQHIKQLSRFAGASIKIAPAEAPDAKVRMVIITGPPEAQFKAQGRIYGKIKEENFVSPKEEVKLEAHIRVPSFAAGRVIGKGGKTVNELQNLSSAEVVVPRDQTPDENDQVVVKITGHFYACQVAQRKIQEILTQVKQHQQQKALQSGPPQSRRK
Sequence of UniProt P51451 (whole entry, looked up): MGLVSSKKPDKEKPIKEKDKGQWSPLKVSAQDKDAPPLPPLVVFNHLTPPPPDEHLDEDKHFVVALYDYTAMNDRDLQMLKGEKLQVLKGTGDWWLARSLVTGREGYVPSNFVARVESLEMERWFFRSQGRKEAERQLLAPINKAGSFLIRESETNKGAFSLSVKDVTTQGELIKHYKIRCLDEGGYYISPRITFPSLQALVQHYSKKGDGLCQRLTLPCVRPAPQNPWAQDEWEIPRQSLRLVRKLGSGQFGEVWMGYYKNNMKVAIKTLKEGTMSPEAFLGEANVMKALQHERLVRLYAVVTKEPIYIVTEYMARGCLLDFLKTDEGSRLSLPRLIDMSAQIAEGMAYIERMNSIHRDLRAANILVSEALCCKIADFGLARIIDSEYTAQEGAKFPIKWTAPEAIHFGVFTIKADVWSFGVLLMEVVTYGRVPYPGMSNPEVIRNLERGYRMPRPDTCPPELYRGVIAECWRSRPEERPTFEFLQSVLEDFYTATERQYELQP

Under “subjects with drug-related headache”, `C[C@]1(CO)Cc2ncn(-c3ccc(C#N)c(Cl)c3)c2C(=O)O1` is recorded as 0% (human, Chinese; 20 mg single dose).
For `CC[C@H](C)[C@@H]1NC(=O)[C@@H]2CCCN2C(=O)[C@H](CC(C)C)NC(=O)[C@H](CC(C)C)NC(=O)CNC(=O)[C@@H](NC(=O)[C@@H](NC(=O)[C@H](CC(=O)O)NC(=O)CNC(=O)[C@@H](NC(=O)[C@H](C)NC(=O)CNC(=O)[C@H](CCCCN)NC(=O)[C@H](CC(C)C)NC(=O)[C@H](CC(C)C)NC(=O)[C@H](CCCCN)NC(=O)CNC(=O)[C@@H](NC(=O)[C@@H](N)CC(C)C)C(C)C)C(C)C)C(C)C)CSSC[C@@H](C(=O)O)NC1=O`, “log2 fold change” read -1.02 (RNA-seq, measured: Sesn2; mouse, traumatic brain injury model, frontal cortex and hippocampus; dose not given; relative to: TBI alone).
The EC50 of `C[C@H]1O[C@@H](Oc2ccccc2[N+](=O)[O-])[C@H](O)[C@@H](O)[C@H]1O` is reported as 200 ± 28 µM (lacI (Escherichia coli, UniProt P03023, N125A); operator DNA binding, nitrocellulose filter binding; together with: O1 operator DNA).
For `CC[C@H](C)[C@H](NC(=O)[C@H](CC(=O)O)NC(=O)[C@H](C)NC(=O)[C@H](Cc1ccc(OP(=O)(O)O)cc1)NC(=O)[C@H](CCCCN)NC(=O)[C@@H](NC(=O)[C@H](CC(=O)O)NC(=O)CNC(=O)[C@H](CCCCN)NC(=O)[C@H](CCSC)NC(=O)[C@H](CC(=O)O)NC(=O)[C@H](CC(C)C)NC(=O)[C@H](CCSC)NC(=O)c1ccc2c(c1)C(=O)OC21c2ccc(N(C)C)cc2Oc2cc(N(C)C)ccc21)C(C)C)C(=O)N[C@@H](CCC(=O)O)C(=O)N[C@@H](CO)C(=O)N[C@@H](CO)C(=O)N[C@@H](CC(N)=O)C(=O)N[C@@H](CC(=O)O)C(=O)O`, the Kd was 0.58 µM (Phosphatidylinositol 3-kinase regulatory subunit gamma, SH2 domain (Homo sapiens, UniProt Q92569); binding).
With `CC[C@H](C)[C@H](NC(=O)[C@H](CCCNC(=N)N)NC(=O)[C@H](CC(N)=O)NC(=O)[C@H](Cc1ccccc1)NC(=O)[C@@H](NC(=O)[C@@H](N)Cc1ccc(O)cc1)[C@@H](C)O)C(=O)N[C@@H](Cc1c[nH]cn1)C(=O)N[C@@H](CCC(=O)O)C(=O)N[C@@H](Cc1ccccc1)C(=O)O` the IC50 was 14.8 µM (HLA class I histocompatibility antigen, A alpha chain allele A*02:01; binding).
The tissue uptake of `CC[C@H](C)[C@H](NC(=O)[C@H](Cc1ccccc1)NC(=O)[C@H](CCC(=O)O)NC(=O)[C@H](CCCNC(=N)N)NC(=O)[C@H](C)NC(=O)[C@H](C)NC(=O)[C@H](CCC(N)=O)NC(=O)[C@H](CCC(=O)O)NC(=O)[C@H](CCC(=O)O)NC(=O)[C@H](CC(C)C)NC(=O)[C@H](Cc1ccc(O)cc1)NC(=O)[C@H](CO)NC(=O)[C@H](CO)NC(=O)[C@@H](NC(=O)[C@H](CC(=O)O)NC(=O)[C@H](CO)NC(=O)[C@@H](NC(=O)[C@H](Cc1ccccc1)NC(=O)[C@@H](NC(=O)CNC(=O)[C@H](CCC(=O)O)NC(=O)[C@H](C)NC(=O)CCc1c[nH]cn1)[C@@H](C)O)[C@@H](C)O)C(C)C)C(=O)N[C@@H](C)C(=O)N[C@@H](Cc1c[nH]c2ccccc12)C(=O)N[C@@H](CC(C)C)C(=O)N[C@H](C(=O)N[C@@H](CCCNC(=N)N)C(=O)NCC(=O)N[C@@H](CCCNC(=N)N)C(=O)N[C@@H](CCCCNC(=O)COCCOCCNC(=O)COCCOCCNC(=O)CC[C@H](NC(=O)CCCCCCCCCCCCCCCCC(=O)O)C(=O)O)C(=O)NCC(=O)NCC(=O)N[C@@H](CO)C(=O)N[C@@H](CCCCNc1c(NCCCCCN(O)C(=O)CCC(=O)NCCCCCN(O)C(=O)CCC(=O)NCCCCCN(O)C(C)=O)c(=O)c1=O)C(=O)O)C(C)C` [zirconium-89 labelled] is reported as 0.05 %ID/g (ex vivo gamma counting; rat, intestine content; subcutaneous, 3 nmol/kg, 72 h, together with: [89Zr]-labelled peptide).
`C=CCCC(NS(=O)(=O)c1cccc(Cl)c1O)C(=O)OC` (stereo not shown) has a Ki of 112 µM (ampC).
For `CO[C@H]1C[C@@H]2CC[C@@H](C)[C@@](O)(O2)C(=O)C(=O)N2CCCC[C@H]2C(=O)O[C@H]([C@H](C)C[C@@H]2CC[C@@H](OC(=O)NCCOCCOCCOCCOCCOCCOCCOCCOCCC(=O)N3CCc4cc(Cn5nc(-c6ccc7oc(N)nc7c6)c6c(N)ncnc65)ccc4C3)[C@H](OC)C2)C[C@@H](O)[C@H](C)/C=C(\C)[C@@H](O)[C@@H](OC)C(=O)[C@H](C)C[C@H](C)/C=C/C=C/C=C/1C`, “incidence of Vomiting TEAE” read 5.3% (patients with advanced solid tumours; intravenous, dose not given, grade ≥3).
For `COC(=O)C(Cc1cccs1)NS(=O)(=O)c1cccc(Cl)c1O` (stereo not shown), the Ki was 168 µM (ampC).
With `CC[C@H](C)[C@H](NC(=O)CNC(=O)[C@H](CC(=O)O)NC(=O)[C@H](Cc1ccc(OP(=O)(O)O)cc1)NC(=O)[C@@H]1CCCN1C(=O)[C@H](CCCCN)NC(=O)[C@H](CO)NC(=O)CNC(=O)[C@H](Cc1ccccc1)NC(=O)[C@@H](NC(=O)[C@H](CCSC)NC(=O)[C@H](CC(C)C)NC(=O)[C@H](CCC(=O)O)NC(=O)c1ccc2c(c1)C(=O)OC21c2ccc(N(C)C)cc2Oc2cc(N(C)C)ccc21)[C@@H](C)O)C(=O)N1CCC[C@H]1C(=O)N[C@@H](C)C(=O)N[C@@H](CO)C(=O)N[C@@H](CCC(=O)O)C(=O)N[C@@H](CC(=O)O)C(=O)O` the Kd was 1.18 µM (Tyrosine-protein kinase Blk, SH2 domain (BLK, Homo sapiens, UniProt P51451); binding).
For `COc1cc(Nc2ncc(F)c(Nc3ccc4c(n3)NC(=O)C(C)(C)O4)n2)cc(OC)c1OC`, the IC50 was over 10 µM (PP2A).
The IC50 of `CC(C)C[C@H](NC(=O)[C@@H](N)Cc1c[nH]cn1)C(=O)N[C@@H](Cc1ccccc1)C(=O)N1CCC[C@H]1C(=O)N[C@@H](CCCNC(=N)N)C(=O)N[C@H](C(=O)N[C@@H](Cc1c[nH]cn1)C(=O)N[C@@H](Cc1ccc(O)cc1)C(=O)N[C@@H](Cc1ccccc1)C(=O)O)[C@@H](C)O` is reported as 0.828 µM (HLA class I histocompatibility antigen, A alpha chain allele A*02:01; binding).
The tissue uptake of `C[C@@H](O)[C@@H](CO)NC(=O)[C@@H](CCCNC(=N)N)NC(=O)[C@@H]1CCCN1C(=O)[C@@H]1CSSC[C@H](NC(=O)[C@H](Cc2ccccc2)NC(=O)CN2CCN(CC(=O)O)CCN(CC(=O)O)CCN(CC(=O)O)CC2)C(=O)N[C@@H](Cc2ccc(O)cc2)C(=O)N[C@@H](Cc2ccccc2)C(=O)N[C@@H](CCC(N)=O)C(=O)N[C@@H](CC(N)=O)C(=O)N1` [gallium-68 labelled] is reported as 0.15 %ID/g (Wistar rat, healthy, Lacrimal gland; intravenous, 8 MBq, 30 min, mean).
`COC(=O)c1cc(CNS(=O)(=O)c2cc(Cl)cc(Cl)c2O)ccc1Cl` has a Ki of 66.9 µM (ampC).
For `COc1cc2c(Oc3ccc4[nH]c(C)cc4c3F)ccnc2cc1OCC1(N)CC1`, “intestinal obstruction incidence” read 0% (paediatric refractory sarcoma patients; 10 mg).
`CC[C@H](C)[C@H](NC(=O)[C@@H](N)CCCCN)C(=O)N[C@@H](Cc1ccccc1)C(=O)N1CCC[C@H]1C(=O)N[C@H](C(=O)N1CCC[C@H]1C(=O)N[C@@H](CC(C)C)C(=O)N[C@@H](CCCCN)C(=O)N[C@@H](Cc1ccccc1)C(=O)O)C(C)C` has an IC50 of 0.102 µM (HLA class I histocompatibility antigen, A alpha chain allele A*24:02; binding).
`C[C@@H](O)[C@H](NC(=O)[C@@H]1CSSC[C@H](NC(=O)[C@@H](Cc2ccccc2)NC(=O)CN2CCN(CC(=O)[O-])CCN(CC(=O)[O-])CCN(CC(=O)[O-])CC2)C(=O)N[C@@H](Cc2ccc(O)cc2)C(=O)N[C@H](Cc2c[nH]c3ccccc23)C(=O)N[C@@H](CCCCN)C(=O)N[C@@H]([C@@H](C)O)C(=O)N1)C(=O)O.[177Lu+3]` has an uptake of 0.554% (MEC1 treated with 200 µM zebularine; gamma counter; serum-free RPMI; 30 min, 37 °C).
`CSCC[C@H](NC(=O)[C@H](CCC(N)=O)NC(=O)[C@@H](N)CCCCN)C(=O)NCC(=O)N[C@@H](Cc1c[nH]cn1)C(=O)N[C@@H](CC(C)C)C(=O)N[C@@H](CC(C)C)C(=O)N[C@H](C(=O)N[C@@H](Cc1ccccc1)C(=O)O)[C@@H](C)O` has an IC50 of 0.719 µM (HLA class I histocompatibility antigen, A alpha chain allele A*24:02; binding).
With `CC(C)S[C@@H]1O[C@H](CO)[C@H](O)[C@H](O)[C@H]1O` the Kd was 6 ± 0.3 µM (lacI (Escherichia coli, UniProt P03023, D149C); binding, fluorescence titration; no operator DNA).
For `CSCC[C@H](NC(=O)[C@@H](NC(=O)[C@H](CC(C)C)NC(=O)[C@@H](NC(=O)[C@H](CCCCN)NC(=O)[C@H](CC(N)=O)NC(=O)[C@H](Cc1ccc(O)cc1)NC(=O)[C@H](CCSC)NC(=O)[C@@H](N)CCCNC(=N)N)[C@@H](C)O)[C@@H](C)O)C(=O)O`, the IC50 was 49.1 µM (HLA class I histocompatibility antigen, A alpha chain allele A*24:02; binding).
`COC(=O)C(C)c1cccc(NS(=O)(=O)c2cc(Cl)cc(Cl)c2O)c1` (stereo not shown) gave a Ki of 21 µM (ampC).
With `C[C@H]1CN(c2n[nH]c3nc(N[C@H]4CC[C@H](NS(=O)(=O)CCC(F)(F)F)CC4)ncc23)CCO1` the IC50 was at least 20 µM (IGF2BP3 (Homo sapiens, UniProt O00425); biochemical).

Excerpt of the above:
The tissue uptake of `CC[C@H](C)[C@H](NC(=O)[C@H](Cc1ccccc1)NC(=O)[C@H](CCC(=O)O)NC(=O)[C@H](CCCNC(=N)N)NC(=O)[C@H](C)NC(=O)[C@H](C)NC(=O)[C@H](CCC(N)=O)NC(=O)[C@H](CCC(=O)O)NC(=O)[C@H](CCC(=O)O)NC(=O)[C@H](CC(C)C)NC(=O)[C@H](Cc1ccc(O)cc1)NC(=O)[C@H](CO)NC(=O)[C@H](CO)NC(=O)[C@@H](NC(=O)[C@H](CC(=O)O)NC(=O)[C@H](CO)NC(=O)[C@@H](NC(=O)[C@H](Cc1ccccc1)NC(=O)[C@@H](NC(=O)CNC(=O)[C@H](CCC(=O)O)NC(=O)[C@H](C)NC(=O)CCc1c[nH]cn1)[C@@H](C)O)[C@@H](C)O)C(C)C)C(=O)N[C@@H](C)C(=O)N[C@@H](Cc1c[nH]c2ccccc12)C(=O)N[C@@H](CC(C)C)C(=O)N[C@H](C(=O)N[C@@H](CCCNC(=N)N)C(=O)NCC(=O)N[C@@H](CCCNC(=N)N)C(=O)N[C@@H](CCCCNC(=O)COCCOCCNC(=O)COCCOCCNC(=O)CC[C@H](NC(=O)CCCCCCCCCCCCCCCCC(=O)O)C(=O)O)C(=O)NCC(=O)NCC(=O)N[C@@H](CO)C(=O)N[C@@H](CCCCNc1c(NCCCCCN(O)C(=O)CCC(=O)NCCCCCN(O)C(=O)CCC(=O)NCCCCCN(O)C(C)=O)c(=O)c1=O)C(=O)O)C(C)C` [zirconium-89 labelled] is reported as 0.05 %ID/g (ex vivo gamma counting; rat, intestine content; subcutaneous, 3 nmol/kg, 72 h, together with: [89Zr]-labelled peptide).
`C=CCCC(NS(=O)(=O)c1cccc(Cl)c1O)C(=O)OC` (stereo not shown) has a Ki of 112 µM (ampC).
For `CO[C@H]1C[C@@H]2CC[C@@H](C)[C@@](O)(O2)C(=O)C(=O)N2CCCC[C@H]2C(=O)O[C@H]([C@H](C)C[C@@H]2CC[C@@H](OC(=O)NCCOCCOCCOCCOCCOCCOCCOCCOCCC(=O)N3CCc4cc(Cn5nc(-c6ccc7oc(N)nc7c6)c6c(N)ncnc65)ccc4C3)[C@H](OC)C2)C[C@@H](O)[C@H](C)/C=C(\C)[C@@H](O)[C@@H](OC)C(=O)[C@H](C)C[C@H](C)/C=C/C=C/C=C/1C`, “incidence of Vomiting TEAE” read 5.3% (patients with advanced solid tumours; intravenous, dose not given, grade ≥3).
For `COC(=O)C(Cc1cccs1)NS(=O)(=O)c1cccc(Cl)c1O` (stereo not shown), the Ki was 168 µM (ampC).
